# Measured values from different studies.
# Lines come from different studies, so protocols differ.
# DRD4: D(4) dopamine receptor (DRD4, Homo sapiens, UniProt P21917)
# Chain of UniProt P21917 (whole entry, looked up): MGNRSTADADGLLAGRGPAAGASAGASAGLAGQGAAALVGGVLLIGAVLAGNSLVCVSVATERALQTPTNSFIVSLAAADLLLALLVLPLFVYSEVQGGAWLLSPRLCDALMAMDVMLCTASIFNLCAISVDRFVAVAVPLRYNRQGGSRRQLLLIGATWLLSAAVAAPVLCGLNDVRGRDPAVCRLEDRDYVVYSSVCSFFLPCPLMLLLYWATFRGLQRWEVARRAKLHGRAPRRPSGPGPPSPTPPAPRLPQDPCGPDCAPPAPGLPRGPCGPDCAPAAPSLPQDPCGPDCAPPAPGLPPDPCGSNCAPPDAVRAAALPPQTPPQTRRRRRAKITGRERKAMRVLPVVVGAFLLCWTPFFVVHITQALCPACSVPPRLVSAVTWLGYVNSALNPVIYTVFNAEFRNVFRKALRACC
# Chain of UniProt Q16531 (whole entry, looked up): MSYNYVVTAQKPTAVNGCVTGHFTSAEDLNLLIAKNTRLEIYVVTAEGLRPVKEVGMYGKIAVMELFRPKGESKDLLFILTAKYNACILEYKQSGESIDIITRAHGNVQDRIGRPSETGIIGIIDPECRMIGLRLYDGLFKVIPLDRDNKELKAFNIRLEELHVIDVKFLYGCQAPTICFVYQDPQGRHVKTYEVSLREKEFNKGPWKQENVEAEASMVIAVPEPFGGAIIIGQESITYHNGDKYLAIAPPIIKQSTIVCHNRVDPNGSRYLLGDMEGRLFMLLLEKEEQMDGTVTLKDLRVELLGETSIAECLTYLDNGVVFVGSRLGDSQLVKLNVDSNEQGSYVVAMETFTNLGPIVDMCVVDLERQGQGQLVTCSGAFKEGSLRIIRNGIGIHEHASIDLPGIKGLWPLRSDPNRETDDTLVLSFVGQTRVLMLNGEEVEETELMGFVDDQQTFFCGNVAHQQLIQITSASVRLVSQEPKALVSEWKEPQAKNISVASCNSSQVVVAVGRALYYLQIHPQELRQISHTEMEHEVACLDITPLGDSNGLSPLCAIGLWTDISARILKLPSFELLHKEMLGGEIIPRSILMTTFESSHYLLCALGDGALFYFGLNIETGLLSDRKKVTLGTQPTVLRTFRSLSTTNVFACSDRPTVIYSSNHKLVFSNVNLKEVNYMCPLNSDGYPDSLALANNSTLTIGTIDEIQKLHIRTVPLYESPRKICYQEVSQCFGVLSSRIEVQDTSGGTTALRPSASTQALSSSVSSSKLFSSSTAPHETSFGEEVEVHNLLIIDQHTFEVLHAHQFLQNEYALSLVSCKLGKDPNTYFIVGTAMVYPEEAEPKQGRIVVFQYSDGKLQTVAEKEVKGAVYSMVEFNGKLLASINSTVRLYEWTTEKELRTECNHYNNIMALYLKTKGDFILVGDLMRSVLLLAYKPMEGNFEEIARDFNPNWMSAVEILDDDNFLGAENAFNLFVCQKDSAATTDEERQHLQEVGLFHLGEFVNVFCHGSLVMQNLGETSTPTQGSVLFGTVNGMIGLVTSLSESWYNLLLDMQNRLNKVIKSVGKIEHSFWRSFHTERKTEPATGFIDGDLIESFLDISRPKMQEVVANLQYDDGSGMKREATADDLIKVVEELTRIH
# Chain of UniProt Q13304 (whole entry, looked up): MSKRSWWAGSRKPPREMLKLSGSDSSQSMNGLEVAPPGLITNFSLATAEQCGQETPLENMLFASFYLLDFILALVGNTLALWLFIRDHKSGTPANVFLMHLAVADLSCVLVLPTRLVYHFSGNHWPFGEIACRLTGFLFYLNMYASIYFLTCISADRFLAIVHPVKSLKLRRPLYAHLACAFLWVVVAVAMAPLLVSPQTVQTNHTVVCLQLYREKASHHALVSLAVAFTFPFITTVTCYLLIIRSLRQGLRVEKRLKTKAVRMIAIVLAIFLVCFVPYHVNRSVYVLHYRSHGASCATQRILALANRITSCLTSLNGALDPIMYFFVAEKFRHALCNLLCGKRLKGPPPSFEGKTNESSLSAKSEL
# Chain of UniProt Q2TAA2 (whole entry, looked up): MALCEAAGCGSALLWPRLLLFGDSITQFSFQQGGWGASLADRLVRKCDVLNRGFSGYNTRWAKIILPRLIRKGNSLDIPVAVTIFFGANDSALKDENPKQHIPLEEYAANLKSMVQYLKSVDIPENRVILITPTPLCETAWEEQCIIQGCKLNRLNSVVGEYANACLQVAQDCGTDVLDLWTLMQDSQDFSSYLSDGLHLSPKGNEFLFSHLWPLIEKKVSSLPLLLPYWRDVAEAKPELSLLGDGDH
# Chain of UniProt P33534 (whole entry, looked up): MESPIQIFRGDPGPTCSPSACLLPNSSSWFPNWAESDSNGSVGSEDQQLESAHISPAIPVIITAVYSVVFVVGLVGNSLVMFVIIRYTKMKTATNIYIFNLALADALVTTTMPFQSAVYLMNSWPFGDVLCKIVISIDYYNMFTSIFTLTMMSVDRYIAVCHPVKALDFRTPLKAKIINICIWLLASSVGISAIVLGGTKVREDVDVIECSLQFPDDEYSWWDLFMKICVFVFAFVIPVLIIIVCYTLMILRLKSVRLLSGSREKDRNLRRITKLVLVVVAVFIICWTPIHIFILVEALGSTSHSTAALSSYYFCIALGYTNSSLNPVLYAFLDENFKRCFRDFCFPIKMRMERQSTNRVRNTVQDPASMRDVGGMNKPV
SMILES,target or system,test,test system,setting,scale,quantity,value
O=S(=O)(F)Oc1cc(C(F)(F)F)cc(C(F)(F)F)c1,,"reaction with N-acetyl-lysine, HPLC-MS",,"pH 10.2, with: N-α-acetyl-lysine",,pseudo-first-order rate constant,1.2 h⁻¹
Oc1ccc2c3c1O[C@H]1[C@@H](O)CC[C@@]4(O)[C@@H](C2)N(CC2CCC2)CC[C@]314,"GPR17 (Homo sapiens, UniProt Q13304)","β-arrestin recruitment, TANGO luminescence",,concentration not given,reference: basal luminescence,log2 fold change,-0.006
CNC1(c2ccccc2Cl)CCCCC1=O (racemic),P2X receptor,"radioligand binding, agonist, radioligand displacement",,30 µM,,inhibition,-6%
CC[C@H](C)[C@H](NC(=O)[C@H](Cc1ccccc1)NC(=O)[C@H](CCC(=O)O)NC(=O)[C@H](CCCNC(=N)N)NC(=O)[C@H](C)NC(=O)[C@H](C)NC(=O)[C@H](CCC(N)=O)NC(=O)[C@H](CCC(=O)O)NC(=O)[C@H](CCC(=O)O)NC(=O)[C@H](CC(C)C)NC(=O)[C@H](Cc1ccc(O)cc1)NC(=O)[C@H](CO)NC(=O)[C@H](CO)NC(=O)[C@@H](NC(=O)[C@H](CC(=O)O)NC(=O)[C@H](CO)NC(=O)[C@@H](NC(=O)[C@H](Cc1ccccc1)NC(=O)[C@@H](NC(=O)CNC(=O)[C@H](CCC(=O)O)NC(=O)[C@H](C)NC(=O)CCc1c[nH]cn1)[C@@H](C)O)[C@@H](C)O)C(C)C)C(=O)N[C@@H](C)C(=O)N[C@@H](Cc1c[nH]c2ccccc12)C(=O)N[C@@H](CC(C)C)C(=O)N[C@H](C(=O)N[C@@H](CCCNC(=N)N)C(=O)NCC(=O)N[C@@H](CCCNC(=N)N)C(=O)N[C@@H](CCCCNC(=O)COCCOCCNC(=O)COCCOCCNC(=O)CC[C@H](NC(=O)CCCCCCCCCCCCCCCCC(=O)O)C(=O)O)C(=O)NCC(=O)NCC(=O)N[C@@H](CO)C(=O)N[C@@H](CCCCNc1c(NCCCCCN(O)C(=O)CCC(=O)NCCCCCN(O)C(=O)CCC(=O)NCCCCCN(O)C(C)=O)c(=O)c1=O)C(=O)O)C(C)C [zirconium-89 labelled],,,"rat, spleen","iv, 3 nmol/kg, 72 h, ex vivo",,tissue uptake,0.46 %ID/g
C[C@H]1CN(c2n[nH]c3nc(N[C@H]4CC[C@H](NS(=O)(=O)CCC(F)(F)F)CC4)ncc23)CCO1,"DDB1 (Homo sapiens, UniProt Q16531)","inhibitor, Kinobeads competition profiling",,0.032 µM,reference: vehicle,relative abundance,0.94
CO[C@H]1C[C@@H]2CC[C@@H](C)[C@@](O)(O2)C(=O)C(=O)N2CCCC[C@H]2C(=O)O[C@H]([C@H](C)C[C@@H]2CC[C@@H](OC(=O)NCCOCCOCCOCCOCCOCCOCCOCCOCCC(=O)N3CCc4cc(Cn5nc(-c6ccc7oc(N)nc7c6)c6c(N)ncnc65)ccc4C3)[C@H](OC)C2)C[C@@H](O)[C@H](C)/C=C(\C)[C@@H](O)[C@@H](OC)C(=O)[C@H](C)C[C@H](C)/C=C/C=C/C=C/1C,,"phase 1 dose escalation, refers to: mucositis",advanced solid tumour patients,"intravenous, 6 mg weekly, any grade",,TRAE incidence,50%
CN1CC[C@@]2(C)c3cc(OC(=O)Nc4ccccc4)ccc3N(C)[C@@H]12,human nicotinic α3β2 receptor,radioligand binding,,"10 µM, with: [3H]epibatidine",,inhibition,6.1%
O=C(N[C@@H]1CCC2C3Cc4ccc(O)c5c4[C@@]2(CCN3CC2CC2)C1O5)c1cccc(I)c1 (stereo partly drawn),"Oprk1 (Mus musculus, UniProt P33534)",,,,reference: mouse DOR over KOR potency,selectivity ratio,30 fold
COc1cc2c(Oc3ccc4[nH]c(C)cc4c3F)ccnc2cc1OCC1(N)CC1,,,paediatric recurrent refractory sarcoma,12 mg,,grade 1 or 2 Tinnitus,18.2%
CC[C@H](C)[C@@H]1NC(=O)[C@@H]2CCCN2C(=O)[C@H](CC(C)C)NC(=O)[C@H](CC(C)C)NC(=O)CNC(=O)[C@@H](NC(=O)[C@@H](NC(=O)[C@H](CC(=O)O)NC(=O)CNC(=O)[C@@H](NC(=O)[C@H](C)NC(=O)CNC(=O)[C@H](CCCCN)NC(=O)[C@H](CC(C)C)NC(=O)[C@H](CC(C)C)NC(=O)[C@H](CCCCN)NC(=O)CNC(=O)[C@@H](NC(=O)[C@@H](N)CC(C)C)C(C)C)C(C)C)C(C)C)CSSC[C@@H](C(=O)O)NC1=O,,"RNA-seq, refers to: Ptprc mRNA","mouse traumatic brain injury, frontal cortex and hippocampus",dose not given,reference: TBI plus compound vs TBI,log2 fold change,-2.27
COc1ccc(N2C(=O)N(c3c(C)cccc3Cl)Cc3cnc(Nc4ccc(C5CCN(C)CC5)cc4OC)nc32)nc1,"SYK (Homo sapiens, UniProt P43405)",kinase activity,,0.5 µM,,inhibition,-2.39%
[2H]c1c([2H])c([C@]2([2H])CCCN2C(=O)C(C)(C)Oc2ccc3cn[nH]c3c2)c([2H])c([2H])c1C([2H])([2H])[2H],"EGFR (Homo sapiens, UniProt P00533)",KINOMEscan,,1 µM,reference: DMSO control,remaining binding,86%
O=C(c1ccc(Cl)cc1)N1CCN2C(=O)N(OC(=O)N3CCOc4ccccc43)C(=O)C2C1 (stereo not drawn),"Isoamyl acetate-hydrolyzing esterase 1 homolog (IAH1, Homo sapiens, UniProt Q2TAA2)","enzyme activity, inhibitor, MS-based ABPP",SW-620 conditioned medium,"10 µM, 1 h, 37 °C","reference: compound over DMSO, lower = stronger inhibition",median ratio,1.55
CN1CCN(c2cc(-c3ccncc3)c(-c3ccc4ccccc4c3)nn2)CC1,DRD4,"antagonist, FLIPR",,10 µM,,inhibition,8.2%
COc1cc(Nc2ncc(F)c(Nc3ccc4c(n3)NC(=O)C(C)(C)O4)n2)cc(OC)c1OC,DRD4,,,,,IC50,> 10 µM
